{"data": "Results collected from several papers", "note": "Each line is one published result; not all experiments were run side by side."}
{"SMILES": "O=C(O)c1c(O)cc(O[C@@H]2O[C@H](CO)[C@@H](O)[C@H](O)[C@H]2O)cc1/C=C/c1ccccc1", "host": "male Sprague-Dawley rat", "medium": "plasma", "route": "intravenous", "dose": "1 mg/kg", "half-life [h]": 0.895}
{"SMILES": "COC(=O)C1=CNC=C(C(=O)OC)C1c1ccc(F)c(C(F)(F)F)c1", "host": "male Sprague-Dawley rat", "medium": "plasma", "route": "oral", "dose": "50 mg/kg", "half-life [h]": 4}
{"SMILES": "CC1(C)C(NC(=O)C(=NOC2(C(=O)O)CC2)c2csc(N)n2)C(=O)N1OS(=O)(=O)O (stereo not shown)", "host": "rat", "medium": "plasma", "route": "intravenous", "dose": "10 mg/kg", "notes": "single dose", "half-life [h]": 0.65}
{"SMILES": "CCC(CC)n1c(Cc2ccco2)nc2cc(C(=O)N[C@@H](CC(=O)O)c3ccccc3)ccc21", "host": "male Sprague-Dawley rat", "medium": "plasma", "route": "intraperitoneal", "dose": "10 mg/kg", "half-life [h]": 4.43}
{"SMILES": "COCCN(C)CC(=O)NC(Cc1ccc(-c2ccccc2)cc1)B(O)O (stereo not shown)", "host": "rat", "medium": "plasma", "route": "oral", "dose": "1 mg/kg", "half-life [h]": 3.7}
{"SMILES": "CNC(=O)C1CCCN(C(=O)C2CC3CCC2N3C(=O)[C@@H]2C[C@@H](O)CN2C(=O)NCc2cccc(Cl)c2F)C1 (mixture of isomers)", "host": "rat", "medium": "plasma", "route": "intravenous", "dose": "2.5 mg/kg", "half-life [h]": 3.55}
{"SMILES": "O=C(C1CCN(c2nnnn2-c2ccccc2)CC1)N1CCCc2ccccc21", "host": "male Sprague-Dawley rat", "medium": "plasma", "route": "intravenous", "dose": "1 mg/kg", "half-life [h]": 1.49}
{"SMILES": "COc1cc(-c2cc(=O)c3ccc(OCCCn4c(Cl)nc5ccccc54)cc3o2)cc(OC)c1OC", "host": "male Sprague-Dawley rat", "medium": "plasma", "route": "intravenous", "dose": "10 mg/kg", "half-life [h]": 2.98}
{"SMILES": "O=c1c(-c2ccc(Cl)c(CN3CCOCC3)c2)coc2cc(O)ccc12", "host": "male Sprague-Dawley rat", "medium": "plasma", "route": "oral", "dose": "10 mg/kg", "half-life [h]": 4.07}
{"SMILES": "Cc1cc2c(cc1O)C=C1C=CC(=O)C(C)(C)[C@H]1CC2", "host": "male Sprague-Dawley rat", "medium": "plasma", "route": "oral", "dose": "20 mg/kg", "half-life [h]": 7.61}
{"SMILES": "Cc1[nH]nc2c1N=C(c1ccccc1Cl)c1cnc(N3CCOCC3)cc1N2", "host": "male Sprague-Dawley rat", "medium": "plasma", "route": "oral", "dose": "5 mg/kg", "half-life [h]": 3.5}
{"SMILES": "COC1C(c2ccc(Cl)c(Cc3ccc(OC4CCOC4)cc3)c2)OC(CO)C(O)C1O (stereo not shown)", "host": "Sprague-Dawley rat", "medium": "plasma", "route": "intravenous", "dose": "2.5 mg/kg", "half-life [h]": 1.09}
{"SMILES": "OC1(C(F)(F)F)CCN(c2nc(Nc3ccnc(C(F)(F)F)c3)nc(-c3cccc(C(F)(F)F)n3)n2)C1 (stereo not shown)", "host": "Sprague-Dawley rat", "medium": "plasma", "route": "oral", "dose": "10 mg/kg", "half-life [h]": 13.8}
{"SMILES": "CN1CCC[C@@H]1C(=O)N[C@@H](Cc1ccc(-c2ccccc2)cc1)B(O)O", "host": "male Sprague-Dawley rat", "medium": "plasma", "route": "oral", "dose": "1 mg/kg", "half-life [h]": 4}
{"SMILES": "CCC(CC)n1c(Cc2cccs2)nc2cc(C(=O)N[C@@H](CC(=O)O)c3ccccc3)ccc21", "host": "male Sprague-Dawley rat", "medium": "plasma", "route": "intravenous", "dose": "1 mg/kg", "half-life [h]": 1.42}
{"SMILES": "CC(=Nc1ccc(N)cc1)N(C)C", "host": "male Sprague-Dawley rat", "medium": "plasma", "route": "intravenous", "dose": "20 mg/kg", "half-life [h]": 5.58}
{"SMILES": "OCC1OC(n2cnc3c(NCc4ccc(Br)s4)ncnc32)C(O)C1O (stereo not shown)", "host": "male Sprague-Dawley rat", "medium": "blood", "route": "intravenous", "dose": "6 mg/kg", "half-life [h]": "2.1 to 4"}
{"SMILES": "C/C(N)=N/C(=N\\S(=O)(=O)c1ccc(C(F)(F)F)cc1)N1C[C@H](c2ccccc2)C(c2ccc(Cl)cc2)=N1", "host": "male Sprague-Dawley rat", "medium": "plasma", "route": "intravenous", "dose": "3 mg/kg", "half-life [h]": 6.8}
{"SMILES": "C=C(NC(=O)c1csc(-c2nc3c(cc2O)-c2nc(cs2)C(=O)NC(C(C)O)C(=O)NC(=C(C)OC)c2nc(cs2)C(=O)NC2c4nc(cs4)C(=O)NC(COC(=O)c4c5c6c(cccc6n4O)COC(=O)C(OC4CC(C)(O)C(N(C)C)C(C)O4)C2OC5)c2nc-3cs2)n1)C(N)=O (stereo not shown)", "host": "female Sprague-Dawley rat", "medium": "plasma", "route": "intravenous", "dose": "6 mg/kg", "notes": "single dose, infusion", "half-life [h]": 5.37}
{"note": "Some of these lines once more:"}
{"SMILES": "CCC(CC)n1c(Cc2cccs2)nc2cc(C(=O)N[C@@H](CC(=O)O)c3ccccc3)ccc21", "host": "male Sprague-Dawley rat", "medium": "plasma", "route": "intravenous", "dose": "1 mg/kg", "half-life [h]": 1.42}
{"SMILES": "CC(=Nc1ccc(N)cc1)N(C)C", "host": "male Sprague-Dawley rat", "medium": "plasma", "route": "intravenous", "dose": "20 mg/kg", "half-life [h]": 5.58}
